Assay results collected from several papers.
Compare with care: the assays were run in different laboratories. ± marks the error that the study gave.
Sctr: Sctr (Rattus norvegicus, UniProt P23811)
UniProt P23811, sequence (whole entry, looked up): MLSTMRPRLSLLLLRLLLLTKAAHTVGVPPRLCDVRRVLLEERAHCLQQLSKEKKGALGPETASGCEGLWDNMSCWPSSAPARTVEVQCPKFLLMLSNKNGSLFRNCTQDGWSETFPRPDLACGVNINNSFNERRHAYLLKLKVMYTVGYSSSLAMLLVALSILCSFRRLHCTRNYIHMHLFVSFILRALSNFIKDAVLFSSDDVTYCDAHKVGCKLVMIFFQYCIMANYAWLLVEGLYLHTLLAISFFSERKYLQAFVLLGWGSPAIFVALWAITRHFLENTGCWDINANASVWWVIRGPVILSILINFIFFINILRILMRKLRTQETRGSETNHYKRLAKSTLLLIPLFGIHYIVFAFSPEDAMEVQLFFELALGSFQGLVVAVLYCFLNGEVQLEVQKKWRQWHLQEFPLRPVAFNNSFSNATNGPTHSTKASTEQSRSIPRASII
GRPR: Gastrin-releasing peptide receptor (GRPR, Homo sapiens, UniProt P30550)
UniProt P30550, sequence (whole entry, looked up): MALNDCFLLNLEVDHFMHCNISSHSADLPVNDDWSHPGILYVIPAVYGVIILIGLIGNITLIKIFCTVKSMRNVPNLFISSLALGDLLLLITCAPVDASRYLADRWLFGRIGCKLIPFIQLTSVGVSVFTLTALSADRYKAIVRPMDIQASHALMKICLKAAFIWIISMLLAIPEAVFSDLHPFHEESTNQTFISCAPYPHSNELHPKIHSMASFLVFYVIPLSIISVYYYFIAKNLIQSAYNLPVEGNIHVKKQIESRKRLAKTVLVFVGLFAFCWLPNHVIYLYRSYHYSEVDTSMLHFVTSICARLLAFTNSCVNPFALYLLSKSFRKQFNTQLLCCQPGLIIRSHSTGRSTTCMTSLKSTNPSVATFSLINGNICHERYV
UniProt P29994, sequence (whole entry, looked up): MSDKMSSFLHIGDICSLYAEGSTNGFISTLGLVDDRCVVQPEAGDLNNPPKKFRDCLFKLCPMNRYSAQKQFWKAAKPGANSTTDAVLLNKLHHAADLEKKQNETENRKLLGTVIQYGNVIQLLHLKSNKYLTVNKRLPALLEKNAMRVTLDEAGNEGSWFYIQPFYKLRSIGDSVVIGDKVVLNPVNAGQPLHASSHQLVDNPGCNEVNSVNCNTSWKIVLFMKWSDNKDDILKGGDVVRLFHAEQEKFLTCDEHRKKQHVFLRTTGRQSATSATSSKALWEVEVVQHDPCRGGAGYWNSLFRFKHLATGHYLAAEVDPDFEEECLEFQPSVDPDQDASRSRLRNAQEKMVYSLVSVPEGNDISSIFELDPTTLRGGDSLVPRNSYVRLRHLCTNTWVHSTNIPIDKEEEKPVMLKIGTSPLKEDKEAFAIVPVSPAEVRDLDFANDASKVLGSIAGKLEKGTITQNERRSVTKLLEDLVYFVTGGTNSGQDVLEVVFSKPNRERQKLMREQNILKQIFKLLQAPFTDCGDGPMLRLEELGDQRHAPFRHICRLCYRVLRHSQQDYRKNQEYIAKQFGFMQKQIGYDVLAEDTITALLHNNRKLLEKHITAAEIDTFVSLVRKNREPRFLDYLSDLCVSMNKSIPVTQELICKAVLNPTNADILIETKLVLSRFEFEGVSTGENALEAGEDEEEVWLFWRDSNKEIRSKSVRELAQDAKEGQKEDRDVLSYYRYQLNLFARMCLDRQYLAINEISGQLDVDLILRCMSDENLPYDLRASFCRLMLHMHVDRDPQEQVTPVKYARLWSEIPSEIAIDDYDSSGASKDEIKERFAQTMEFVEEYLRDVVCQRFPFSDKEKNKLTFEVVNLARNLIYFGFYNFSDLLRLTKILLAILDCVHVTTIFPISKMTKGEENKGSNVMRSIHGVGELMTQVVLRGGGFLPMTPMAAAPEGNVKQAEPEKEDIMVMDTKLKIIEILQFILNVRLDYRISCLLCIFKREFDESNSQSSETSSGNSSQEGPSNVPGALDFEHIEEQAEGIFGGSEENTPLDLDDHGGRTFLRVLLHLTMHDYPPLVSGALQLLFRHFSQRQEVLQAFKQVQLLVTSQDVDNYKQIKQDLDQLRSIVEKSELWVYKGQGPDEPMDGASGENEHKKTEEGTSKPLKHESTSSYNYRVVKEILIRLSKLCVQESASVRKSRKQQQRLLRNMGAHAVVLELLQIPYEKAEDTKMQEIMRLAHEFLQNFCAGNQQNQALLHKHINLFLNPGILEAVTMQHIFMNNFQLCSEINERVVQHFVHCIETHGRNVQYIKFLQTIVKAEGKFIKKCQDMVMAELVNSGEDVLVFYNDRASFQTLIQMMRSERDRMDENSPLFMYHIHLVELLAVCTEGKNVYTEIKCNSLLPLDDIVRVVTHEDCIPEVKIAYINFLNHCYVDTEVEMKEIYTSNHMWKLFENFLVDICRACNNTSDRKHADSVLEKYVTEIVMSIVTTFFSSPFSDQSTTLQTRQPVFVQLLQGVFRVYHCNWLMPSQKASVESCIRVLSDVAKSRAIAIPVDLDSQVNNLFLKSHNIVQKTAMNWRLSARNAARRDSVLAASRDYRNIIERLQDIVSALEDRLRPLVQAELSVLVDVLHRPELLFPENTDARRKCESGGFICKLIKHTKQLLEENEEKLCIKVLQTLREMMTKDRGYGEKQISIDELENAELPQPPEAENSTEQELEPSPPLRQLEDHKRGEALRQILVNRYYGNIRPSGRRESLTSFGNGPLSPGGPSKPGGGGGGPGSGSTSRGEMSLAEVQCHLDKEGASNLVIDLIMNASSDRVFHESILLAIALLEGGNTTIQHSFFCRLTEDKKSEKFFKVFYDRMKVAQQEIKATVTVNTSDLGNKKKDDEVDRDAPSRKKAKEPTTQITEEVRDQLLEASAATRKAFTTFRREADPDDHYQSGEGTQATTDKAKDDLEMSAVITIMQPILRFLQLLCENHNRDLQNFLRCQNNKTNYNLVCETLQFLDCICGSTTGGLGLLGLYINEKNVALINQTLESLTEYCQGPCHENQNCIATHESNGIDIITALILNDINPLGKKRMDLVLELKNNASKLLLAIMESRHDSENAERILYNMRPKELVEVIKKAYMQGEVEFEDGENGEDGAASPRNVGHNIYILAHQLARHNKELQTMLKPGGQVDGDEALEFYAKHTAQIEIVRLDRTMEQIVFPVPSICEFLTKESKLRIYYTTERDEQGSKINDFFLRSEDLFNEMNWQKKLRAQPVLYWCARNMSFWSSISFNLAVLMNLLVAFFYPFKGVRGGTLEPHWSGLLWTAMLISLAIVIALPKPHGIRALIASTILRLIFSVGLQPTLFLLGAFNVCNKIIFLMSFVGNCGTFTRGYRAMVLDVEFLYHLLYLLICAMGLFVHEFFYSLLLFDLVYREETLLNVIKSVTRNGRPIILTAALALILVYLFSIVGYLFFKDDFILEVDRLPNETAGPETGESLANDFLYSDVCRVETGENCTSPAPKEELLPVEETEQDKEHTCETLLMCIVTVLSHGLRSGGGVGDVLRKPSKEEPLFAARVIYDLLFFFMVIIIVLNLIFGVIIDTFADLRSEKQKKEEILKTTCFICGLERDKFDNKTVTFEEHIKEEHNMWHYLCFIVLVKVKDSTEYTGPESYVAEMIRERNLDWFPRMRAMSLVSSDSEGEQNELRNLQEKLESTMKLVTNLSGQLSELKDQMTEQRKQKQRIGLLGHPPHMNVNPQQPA
UniProt O15552, sequence (whole entry, looked up): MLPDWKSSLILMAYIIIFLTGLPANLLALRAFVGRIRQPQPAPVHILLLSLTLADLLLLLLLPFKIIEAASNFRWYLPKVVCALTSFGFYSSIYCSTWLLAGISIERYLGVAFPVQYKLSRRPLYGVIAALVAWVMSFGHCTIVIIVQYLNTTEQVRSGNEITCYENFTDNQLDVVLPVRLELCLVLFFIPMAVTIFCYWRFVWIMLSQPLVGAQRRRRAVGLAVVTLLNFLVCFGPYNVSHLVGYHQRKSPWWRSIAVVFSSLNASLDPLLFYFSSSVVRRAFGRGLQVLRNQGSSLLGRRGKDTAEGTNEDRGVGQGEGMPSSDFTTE
UniProt P11597, sequence (whole entry, looked up): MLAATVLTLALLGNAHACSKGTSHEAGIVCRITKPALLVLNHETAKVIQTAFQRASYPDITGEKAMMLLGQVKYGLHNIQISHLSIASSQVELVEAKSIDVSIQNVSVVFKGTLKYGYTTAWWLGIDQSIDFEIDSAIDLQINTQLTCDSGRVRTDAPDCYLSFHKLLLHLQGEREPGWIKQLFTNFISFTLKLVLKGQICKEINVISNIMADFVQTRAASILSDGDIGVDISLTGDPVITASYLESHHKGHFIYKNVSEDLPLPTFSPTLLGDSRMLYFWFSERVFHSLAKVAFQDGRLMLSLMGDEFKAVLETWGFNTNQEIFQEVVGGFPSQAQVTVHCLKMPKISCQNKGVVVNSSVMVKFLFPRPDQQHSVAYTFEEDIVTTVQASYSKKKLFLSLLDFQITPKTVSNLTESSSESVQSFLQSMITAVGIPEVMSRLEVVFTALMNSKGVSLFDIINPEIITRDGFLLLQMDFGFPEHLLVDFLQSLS
UniProt P30518, sequence (whole entry, looked up): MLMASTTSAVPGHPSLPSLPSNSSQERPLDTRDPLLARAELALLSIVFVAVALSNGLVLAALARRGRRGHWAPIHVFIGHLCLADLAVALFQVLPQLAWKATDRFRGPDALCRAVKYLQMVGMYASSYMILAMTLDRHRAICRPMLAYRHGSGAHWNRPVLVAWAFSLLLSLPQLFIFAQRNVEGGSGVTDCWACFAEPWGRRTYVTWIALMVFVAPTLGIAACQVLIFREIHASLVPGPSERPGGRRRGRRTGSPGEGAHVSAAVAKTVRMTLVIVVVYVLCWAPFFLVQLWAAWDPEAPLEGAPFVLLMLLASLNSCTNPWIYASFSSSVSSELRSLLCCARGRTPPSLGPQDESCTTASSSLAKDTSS

Compound	target	test	system	conditions	scale	EC50 [nM]
CC(C)C[C@H](NC(=O)CNC(=O)[C@H](CCC(N)=O)NC(=O)[C@H](CC(C)C)NC(=O)[C@H](CC(C)C)NC(=O)[C@H](CCCNC(=N)N)NC(=O)[C@H](CCC(N)=O)NC(=O)[C@H](CC(C)C)NC(=O)[C@H](CCCNC(=N)N)NC(=O)[C@H](C)NC(=O)[C@H](C)NC(=O)[C@H](CC(=O)O)NC(=O)[C@H](CCC(N)=O)NC(=O)[C@H](CC(C)C)NC(=O)[C@H](CCCNC(=N)N)NC(=O)[C@H](CO)NC(=O)[C@H](CC(C)C)NC(=O)[C@H](CCC(=O)O)NC(=O)[C@H](CO)NC(=O)[C@@H](NC(=O)[C@H](Cc1ccccc1)NC(=O)[C@@H](NC(=O)CNC(=O)[C@H](CC(=O)O)NC(=O)[C@H](CO)NC(=O)[C@@H](N)Cc1c[nH]cn1)[C@@H](C)O)[C@@H](C)O)C(=O)N[C@H](C(N)=O)C(C)C	Sctr	cAMP production, agonist	CHO-SecR	30 min, 37 °C, added: 1 mM IBMX		0.1 ± 0.04
CSCC[C@H](NC(=O)[C@H](CO)NC(=O)[C@H](Cc1ccc(O)cc1)NC(=O)[C@@H](N)CO)C(=O)N[C@@H](CCC(=O)O)C(=O)N[C@@H](Cc1c[nH]cn1)C(=O)N[C@@H](Cc1ccccc1)C(=O)N[C@@H](CCCNC(=N)N)C(=O)N[C@@H](Cc1c[nH]c2ccccc12)C(=O)NCC(=O)O	GPR139 (Homo sapiens, UniProt Q6DWJ6)	calcium mobilisation, agonist, Fluo-4	CHO transfected	from mean pEC50		339
CC(C)C[C@H](NC(=O)CNC(=O)[C@H](CCC(N)=O)NC(=O)[C@H](CC(C)C)NC(=O)[C@H](CC(C)C)NC(=O)[C@H](CCCNC(=N)N)NC(=O)[C@H](CCC(N)=O)NC(=O)[C@H](CC(C)C)NC(=O)[C@H](CCCNC(=N)N)NC(=O)[C@H](C)NC(=O)[C@H](CO)NC(=O)[C@H](CC(=O)O)NC(=O)[C@H](CCC(N)=O)NC(=O)[C@H](CC(C)C)NC(=O)[C@H](CCCNC(=N)N)NC(=O)[C@H](CO)NC(=O)[C@H](CC(C)C)NC(=O)[C@H](CCC(=O)O)NC(=O)[C@H](CO)NC(=O)[C@@H](NC(=O)[C@H](Cc1ccccc1)NC(=O)[C@@H](NC(=O)CNC(=O)[C@H](CC(=O)O)NC(=O)[C@H](CO)NC(=O)[C@H](C)N)[C@@H](C)O)[C@@H](C)O)C(=O)N[C@H](C(N)=O)C(C)C	Sctr	cAMP production, agonist	CHO-SecR	30 min, 37 °C, added: 1 mM IBMX		55.2 ± 8.7
Nc1ncnc2c1ncn2[C@@H]1O[C@H](CO)[C@@H](O[C@H]2O[C@H](CO)[C@@H](OP(=O)(O)O)[C@H](OP(=O)(O)O)[C@H]2O)[C@H]1O	Itpr1 (Rattus norvegicus, UniProt P29994)	calcium signal, agonist				160
CCC(CC)N[C@H](Cc1ccccc1)C(=O)N[C@@H](CCC(N)=O)C(=O)N[C@@H](Cc1c[nH]c2ccccc12)C(=O)N[C@@H](C)C(=O)N[C@H](C(=O)N[C@H](C)C(=O)N[C@@H](Cc1c[nH]cn1)C(=O)N[C@@H](CC(C)C)C(=O)N[C@@H](CC(C)C)C(N)=O)C(C)C	GRPR	inositol phosphate formation, agonist	HuTu80	45 min, 37 °C	reference: 1 µM GRP	17 ± 1
C[C@H](N)C(=O)N[C@@H](Cc1c[nH]c2ccccc12)C(=O)N[C@@H](CC(=O)O)C(=O)N[C@@H](C)C(=O)N[C@@H](C)C(=O)N[C@H](C)C(=O)O	Sctr	cAMP, agonist, TR-FRET				57000
O=C(O)C1CC1	FFAR2 (Homo sapiens, UniProt O15552)	agonist				398000
CSCC[C@H](NC(=O)[C@H](CC(C)C)NC(=O)[C@H](Cc1cnc[nH]1)NC(=O)CNC(=O)[C@@H](NC(=O)[C@H](C)NC(=O)[C@H](Cc1c[nH]c2ccccc12)NC(=O)[C@H](Cc1cnc[nH]1)NC(=O)[C@H](CC(N)=O)NC(=O)CN)C(C)C)C(N)=O	GRPR	inositol phosphate generation, agonist	BALB/3T3 transfected with human GRPR	45 min, 37 °C	reference: 1 µM GRP	4.9 ± 0.1
COc1cc(F)c(C(C)C)cc1C1=C(CN2C(=O)O[C@H](c3cc(C(F)(F)F)cc(C(F)(F)F)c3)[C@@H]2C)CC(C)(C)CC1	Cholesteryl ester transfer protein (Homo sapiens, UniProt P11597)	plasma enzyme activity, inhibitor, PK/PD sigmoid Emax model	healthy male human, plasma	oral, single dose 25 to 400 mg		28.8
COc1ccc(-c2cc(C(F)(F)F)nc(S(=O)(=O)CCCC(=O)Nc3c(F)cc(F)cc3Br)n2)cc1OC	AVPR2 (Homo sapiens, UniProt P30518)	cAMP accumulation, positive allosteric modulator	CHO-K1 overexpressing AVPR2	added: vasopressin at EC20		44000 ± 4000

Repeated from above:
Compound	target	test	system	conditions	scale	EC50 [nM]
C[C@H](N)C(=O)N[C@@H](Cc1c[nH]c2ccccc12)C(=O)N[C@@H](CC(=O)O)C(=O)N[C@@H](C)C(=O)N[C@@H](C)C(=O)N[C@H](C)C(=O)O	Sctr	cAMP, agonist, TR-FRET				57000
O=C(O)C1CC1	FFAR2 (Homo sapiens, UniProt O15552)	agonist				398000
